Published values gathered from unrelated publications.
± marks the error that the study gave.
Organism: Plasmodium berghei

Compound | assay | test system | conditions | measurement | result
Cc1ccc(-c2nc(Nc3ccc(C(=O)N4CCC(N5CCCC5)CC4)cc3)ncc2Cl)s1 | liver stage parasite load, luciferase | HepG2, ANKA | 44 h post-infection | EC50 | 5200 nM
O=C(NCCN1CCCC1)c1cc(-c2ccc(CN3CCOCC3)cc2)nc2ccc(F)cc12 | parasite growth, luciferase bioluminescence | HepG2 spheroids infected | 24 h | EC50 | 1.28 nM
O=C(c1ccc(Nc2ncc(Cl)c(-c3ccc(Cl)s3)n2)cc1)N1CCC(N2CCCC2)CC1 | liver stage parasite load, luciferase | HepG2, ANKA | 44 h post-infection | EC50 | 2800 nM
CCN1CCN(Cc2ccc(Nc3nc4ccc(Oc5ccnc(NC(=O)C6CCN(C)CC6)c5)cc4n3C)cc2C(F)(F)F)CC1 |  | HepG2, ANKA GFP-Luc | liver stage | EC50 | 1600 ± 400 nM
CCOC(=O)C1=C(C)NC2=C(C(=O)OC(c3ccc(OC)c(OC)c3)C2)C1c1ccccc1Cl (stereo not drawn) |  | KBG-173, mice | oral, 50 mg/kg, day 6 post-exposure, vehicle PEG400, modified Thompson test | parasitaemia inhibition | > 75%
COc1ccc(C[C@H](NC(=O)[C@H](C)NC(=O)CN2CCOCC2)C(=O)N[C@@H](Cc2ccccc2)C(=O)C2(C)CO2)cc1 (stereo in doubt) |  | ANKA, mouse | dose not given, one month | recrudescence rate | < 2%
C[C@H]1[C@H](OC(=O)CCC(=O)O)O[C@@H]2O[C@@]3(C)CC[C@H]4[C@H](C)CC[C@@H]1[C@@]24OO3 |  | NK65/GFP, infected mice | oral gavage, 65 µmol/kg once daily, 96 h dosing period | cured mice | 0%
CC1(C)c2nc(-c3ccc(F)cc3)c(Nc3ccc(F)cc3)n2CCN1C(=O)CN | parasite growth, luciferase bioluminescence | HepG2 spheroids infected | 24 h | EC50 | 45.8 nM
O=C1C(O)=C([C@H]2CC[C@H](c3ccc(Cl)cc3)CC2)C(=O)c2ccccc21 | parasite growth, bioluminescence | HC04, ANKA GFP-Luc, liver stage | 0.016 µM | inhibition | > 50%
